Assay results of several laboratories.
Lines come from different studies, so protocols differ. “And” joins repeats or separate records; there may be more than shown.

Compound | organism | assay | system | conditions | MIC
CC(=O)N[C@@H](CC(C)C)C(=O)N[C@H]1CSSC[C@@H](C(=O)N2CCC[C@H]2C(N)=O)NC(=O)[C@H]([C@@H](C)O)NC(=O)[C@H](C(C)C)NC(=O)[C@H]([C@@H](C)O)NC(=O)CNC(=O)[C@H](CC(C)C)NC(=O)[C@H](Cc2ccccc2)NC(=O)[C@H](Cc2ccc(O)cc2)NC(=O)[C@H](CC(C)C)NC(=O)[C@H](CCCCN)NC(=O)[C@H](Cc2ccccc2)NC(=O)[C@H](CCCNC(=N)N)NC(=O)[C@H](CCCCN)NC(=O)[C@H](CC(C)C)NC(=O)[C@H](CCCCN)NC(=O)[C@@H]2CCCN2C(=O)[C@H](CCCCN)NC(=O)[C@H](C(C)C)NC(=O)[C@H](CC(N)=O)NC(=O)[C@H](Cc2ccc(O)cc2)NC(=O)[C@H]([C@@H](C)O)NC1=O | Shigella flexneri | broth dilution | CGMCC strain | 24 h | 2.5 to 5 µM
CC[C@H](C)[C@H](NC(=O)[C@H](CCCCN)NC(=O)[C@H](CCCCN)NC(=O)[C@H](Cc1ccccc1)NC(=O)[C@H](Cc1ccccc1)NC(=O)[C@H](CCCCN)NC(=O)[C@H](CCCCN)NC(=O)[C@H](Cc1ccccc1)NC(=O)[C@H](CCCNC(=N)N)NC(=O)[C@@H](N)CCCCN)C(=O)N[C@@H](CCCCN)C(=O)N[C@@H](CCCCN)C(=O)N[C@@H](CO)C(=O)N[C@H](C(=O)N[C@@H](CCCCN)C(=O)N[C@@H](CCCCN)C(=O)N[C@@H](CCCNC(=N)N)C(=O)N[C@H](C(=O)N[C@@H](CCCCN)C(=O)N[C@@H](CCCCN)C(=O)N[C@@H](CC(C)C)C(=O)N[C@@H](Cc1ccccc1)C(=O)N[C@@H](CCCCN)C(=O)N[C@@H](CCCCN)C(=O)N1CCC[C@H]1C(=O)N[C@@H](CCCNC(=N)N)C(=O)N[C@H](C(=O)N[C@H](C(=O)N1CCC[C@H]1C(=O)N[C@H](C(=O)N[C@@H](CO)C(=O)N[C@H](C(=O)N1CCC[C@H]1C(=O)N[C@@H](Cc1ccccc1)C(=O)O)[C@@H](C)CC)[C@@H](C)CC)[C@@H](C)CC)C(C)C)C(C)C)C(C)C | Pseudomonas aeruginosa | – | P1 | 20 h, added: 150 mM NaCl | 4 µg/mL
[O-][N+]1=C(c2ccsc2)C2=NCCCN2c2ccccc21 | Bacteroides fragilis | – | – | – | 0.125 to 1 µg/mL
C#CCOc1ccc(CN[C@@]2(C)C[C@H](O[C@H]3[C@H](Oc4c5cc6cc4Oc4ccc(cc4Cl)[C@@H](O)[C@@H](NC(=O)[C@@H](CC(C)C)NC)C(=O)N[C@@H](CC(N)=O)C(=O)N[C@H]6C(=O)N[C@H]4C(=O)N[C@H](C(=O)N[C@H](C(=O)NCC(N)=O)c6cc(O)cc(O)c6-c6cc4ccc6O)[C@H](O)c4ccc(c(Cl)c4)O5)O[C@H](CO)[C@@H](O)[C@@H]3O)O[C@@H](C)[C@H]2O)cc1OC | Enterococcus faecalis | broth microdilution | vancomycin-resistant | – | 38 µM
COc1ccc(C2=[N+]([O-])c3ccccc3N3CC(C)(C)CN=C23)cc1 | Bacteroides fragilis | – | – | – | 0.125 to 0.5 µg/mL
CCCCCCCCCCCC(=O)NCCCC[C@H](NC(=O)CCCCCCCCCCC)C(=O)N[C@@H](CCCCNC(=O)CCCCCCCCCCC)C(=O)NCC(=O)NCC(=O)NCC(=O)N[C@@H](CS)C(=O)N[C@@H](CCCNC(=N)N)C(=O)N[C@@H](CCCCN)C(=O)N1CCC[C@H]1C(=O)N[C@@H](CS)C(=O)N[C@@H](CCCNC(=N)N)C(=O)N[C@@H](CCCCN)C(=O)N1CCC[C@H]1C(N)=O | Candida parapsilosis | broth microdilution | CGMCC 2.399, RPMI-1640 | 48 h, 30 °C | > 128 µM
CC(=O)N[C@@H](CC(C)C)C(=O)N[C@H]1CSSC[C@@H](C(=O)N2CCC[C@H]2C(N)=O)NC(=O)[C@H]([C@@H](C)O)NC(=O)[C@H](C(C)C)NC(=O)[C@H]([C@@H](C)O)NC(=O)CNC(=O)[C@H](CC(C)C)NC(=O)[C@H](Cc2ccccc2)NC(=O)[C@H](Cc2ccc(O)cc2)NC(=O)[C@H](CC(C)C)NC(=O)[C@H](CCCCN)NC(=O)[C@H](Cc2ccccc2)NC(=O)[C@H](CCCNC(=N)N)NC(=O)[C@H](CCC(N)=O)NC(=O)[C@H](CC(C)C)NC(=O)[C@H](CCCCN)NC(=O)[C@@H]2CCCN2C(=O)[C@H](CCCCN)NC(=O)[C@H](C(C)C)NC(=O)[C@H](CCCCN)NC(=O)[C@H](Cc2ccc(O)cc2)NC(=O)[C@H]([C@@H](C)O)NC1=O | Shigella flexneri | broth dilution | CGMCC strain | 24 h | 1.25 to 2.5 µM
CC1(C)C(NC(=O)C(=NOC2(C(=O)O)CC2)c2csc(N)n2)C(=O)N1OS(=O)(=O)O (stereo not drawn) | Klebsiella pneumoniae | – | ATCC BAA-2146, ESBL and NDM-positive | compound alone | 2 µg/mL
CC(=O)N[C@@H](CC(C)C)C(=O)N[C@H]1CSSC[C@@H](C(=O)N2CCC[C@H]2C(N)=O)NC(=O)[C@H]([C@@H](C)O)NC(=O)[C@H](C(C)C)NC(=O)[C@H]([C@@H](C)O)NC(=O)CNC(=O)[C@H](CC(C)C)NC(=O)[C@H](Cc2ccccc2)NC(=O)[C@H](Cc2ccc(O)cc2)NC(=O)[C@H](CC(C)C)NC(=O)[C@H](CCCCN)NC(=O)[C@H](Cc2ccccc2)NC(=O)[C@H](CCCNC(=N)N)NC(=O)[C@H](CCC(N)=O)NC(=O)[C@H](CC(C)C)NC(=O)[C@H](CCCCN)NC(=O)[C@@H]2CCCN2C(=O)[C@H](CCCCN)NC(=O)[C@H](C(C)C)NC(=O)[C@H](CC(N)=O)NC(=O)[C@H](Cc2ccc(O)cc2)NC(=O)[C@H]([C@@H](C)O)NC1=O | Vibrio alginolyticus | broth dilution | – | 24 h | > 40 µM
CCCCCCCCCCCCCC(=O)N[C@H]1C(=O)N[C@@H](CN)C(=O)N[C@@H](CO)C(=O)N[C@@H](Cc2ccc(O)cc2)C(=O)O[C@H]1C | Staphylococcus aureus | – | SH1000 | added: N-acetylsphingosine, molar ratio 1 | 1 µg/mL and 2 µg/mL
C#CCOc1ccc(CN[C@@]2(C)C[C@H](O[C@H]3[C@H](Oc4c5cc6cc4Oc4ccc(cc4Cl)[C@@H](O)[C@@H](NC(=O)[C@@H](CC(C)C)NC)C(=O)N[C@@H](CC(N)=O)C(=O)N[C@H]6C(=O)N[C@H]4C(=O)N[C@H](C(=O)N[C@H](C(=O)N[C@@H](CCCNC(=N)N)C(N)=O)c6cc(O)cc(O)c6-c6cc4ccc6O)[C@H](O)c4ccc(c(Cl)c4)O5)O[C@H](CO)[C@@H](O)[C@@H]3O)O[C@@H](C)[C@H]2O)cc1OC | Enterococcus faecalis | broth microdilution | vancomycin-resistant | – | 18 µM
OB(O)c1ccc(OCc2ccccc2)nc1F | Klebsiella aerogenes | bacterial growth | AmpC overproducer clinical isolate | without cefotaxime | > 2050 µg/mL
CC(C)CCCCCCCCC/C=C/C(=O)N[C@@H](CC(=O)O)C(=O)N[C@H]1CNC(=O)[C@@H]2CCCN2C(=O)[C@H](C(C)C)NC(=O)[C@@H](CN)NC(=O)CNC(=O)[C@H](CC(=O)O)NC(=O)CNC(=O)[C@H](CC(=O)O)NC(=O)[C@H](CC(=O)O)NC(=O)[C@H]2CCCCN2C1=O | Staphylococcus aureus | broth microdilution | MRSA USA300, Mueller-Hinton broth, Mg2+ 10 mg/L | 16 h, 37 °C, added: Ca2+ 0 mM | > 128 µg/mL
CC(=O)N[C@@H](CC(C)C)C(=O)N[C@H]1CSSC[C@@H](C(=O)N2CCC[C@H]2C(N)=O)NC(=O)[C@H]([C@@H](C)O)NC(=O)[C@H](C(C)C)NC(=O)[C@H]([C@@H](C)O)NC(=O)[C@H](CCCCN)NC(=O)[C@H](CC(C)C)NC(=O)[C@H](Cc2ccccc2)NC(=O)[C@H](Cc2ccc(O)cc2)NC(=O)[C@H](CC(C)C)NC(=O)[C@H](CCCCN)NC(=O)[C@H](Cc2ccccc2)NC(=O)[C@H](CCCNC(=N)N)NC(=O)[C@H](CCC(N)=O)NC(=O)[C@H](CC(C)C)NC(=O)[C@H](CCCCN)NC(=O)[C@@H]2CCCN2C(=O)[C@H](CCCCN)NC(=O)[C@H](C(C)C)NC(=O)[C@H](CC(N)=O)NC(=O)[C@H](Cc2ccc(O)cc2)NC(=O)[C@H]([C@@H](C)O)NC1=O | Corynebacterium glutamicum | broth dilution | CGMCC strain | 24 h | 1.25 to 2.5 µM
C[N+]1=C2C(c3ccccc3)=[N+]([O-])c3ccccc3N2CCC1 | Bacteroides spp. and Parabacteroides distasonis | – | – | – | 1 to 4 µg/mL
CCCCCCCC(=O)NCCCC[C@H](NC(=O)CCCCCCC)C(=O)N[C@@H](CCCCNC(=O)CCCCCCC)C(=O)NCC(=O)NCC(=O)NCC(=O)N[C@@H](CS)C(=O)N[C@@H](CCCNC(=N)N)C(=O)N[C@@H](CCCCN)C(=O)N1CCC[C@H]1C(=O)N[C@@H](CS)C(=O)N[C@@H](CCCNC(=N)N)C(=O)N[C@@H](CCCCN)C(=O)N1CCC[C@H]1C(N)=O | Candida parapsilosis | broth microdilution | CGMCC 2.399, RPMI-1640 | 48 h, 30 °C | 16 µM
[O-][N+]1=C(Cc2ccccc2)C2=NCCCN2c2ccccc21 | Bacteroides fragilis | – | – | – | 0.5 to 4 µg/mL
CC(C)CCCCCCCCC/C=C/C(=O)N[C@@H](CC(N)=O)C(=O)N[C@H]1CNC(=O)[C@@H]2CCCN2C(=O)[C@H](C(C)C)NC(=O)[C@@H](CN)NC(=O)CNC(=O)[C@H](CC(=O)O)NC(=O)CNC(=O)[C@H](CC(=O)O)NC(=O)[C@H](CC(=O)O)NC(=O)[C@H]2CCCCN2C1=O | Enterococcus | broth microdilution | VRE 155, Mueller-Hinton broth, Mg2+ 10 mg/L | 16 h, added: Ca2+ 5 mM | 1 µg/mL
[O-][N+]1=C(c2ccccc2)C2=NCCN2c2ccccc21 | Bacteroides fragilis | – | – | – | 0.06 to 0.125 µg/mL
CC(=O)N[C@@H](CC(C)C)C(=O)N[C@H]1CSSC[C@@H](C(=O)N2CCC[C@H]2C(N)=O)NC(=O)[C@H]([C@@H](C)O)NC(=O)[C@H](C(C)C)NC(=O)[C@H]([C@@H](C)O)NC(=O)CNC(=O)[C@H](CCCCN)NC(=O)[C@H](Cc2ccccc2)NC(=O)[C@H](Cc2ccc(O)cc2)NC(=O)[C@H](CCCCN)NC(=O)[C@H](CCC(=O)O)NC(=O)[C@H](Cc2ccccc2)NC(=O)[C@H](CCCNC(=N)N)NC(=O)[C@H](CCCCN)NC(=O)[C@H](CC(C)C)NC(=O)[C@H](CC(=O)O)NC(=O)[C@@H]2CCCN2C(=O)[C@H](CCCCN)NC(=O)[C@H](C(C)C)NC(=O)[C@H](CCCCN)NC(=O)[C@H](CCCCN)NC(=O)[C@H]([C@@H](C)O)NC1=O | Shigella flexneri | broth dilution | CGMCC strain | 24 h | > 40 µM
N=C(N)NCCC[C@H](NC(=O)[C@H](CCCNC(=N)N)NC(=O)[C@H](Cc1ccccc1)NC(=O)[C@H](CO)NC(=O)[C@H](Cc1ccccc1)NC(=O)[C@H](Cc1c[nH]c2ccccc12)NC(=O)[C@H](Cc1ccccc1)NC(=O)[C@H](CO)NC(=O)[C@H](Cc1ccccc1)NC(=O)[C@H](CCCNC(=N)N)NC(=O)[C@@H](N)CCCNC(=N)N)C(N)=O | Candida parapsilosis | – | CGMCC 2.399 | 48 h, 37 °C | 2 µM
